Results from different studies.
Several values in a cell are separate wells, animals, samples, runs or records.
Technique: steady-state kinetics
B1: ftsZ (Caulobacter crescentus, UniProt B8H080); chain MAISLSAPRTTELKPRIVVFGVGGAGGNAVNNMIEAGLEGVEFVVANTDAQQLQFAKTDRRIQLGVQITQGLGAGAHPEVGMSAAEESFPEIGEHLDGAHMVFITAGMGGGTGTGAAPIIAKCARERGILTVGVVTKPFHFEGRHRMRLADSGIQELQRYVDTLIVIPNQNLFRVANERTTFAEAFGMADQVLHSGVRSITDLMVLPGLINLDFADVRTVMTEMGKAMMGTGEGTGEDRALMAAQNAIANPLLDEVSLKGAKAVLVNVTGGMDMTLLEVDEAANAISDQVDPEANIIFGAAFDPSLEGVIRVSVVATGMDGASIAQIEPKPVSRNISAAPLIAETSRPAPQPEPARPTARYEAARPAERPVAFAPEPAPEPEIVMSAPQPEPEAELYYDEPTVAEEPRVSAAPARSVNRIVDPLVDDVAEEPLFPENNYYEERRPQKQGGFFSMFGGGRQRYEQQASAPQAQARSAQSARPQLQPIETPQADDAEDLEIPSFLRRLAN
B2: enzyme (Arabidopsis thaliana, UniProt Q9C969); chain GSFGMLSRRTLGTDMPVMAQIRSLMAELTNPMSLAQGVVHWQPPQKALEKVKELVWDPIISSYGPDEGLPELRQALLKKLREENKLTNSQVMVTAGANQAFVNLVITLCDAGDSVVMFEPYYFNSYMAFQMTGVTNIIVGPGQSDTLYPDADWLERTLSESKPTPKVVTVVNPGNPSGTYVPEPLLKRIAQICKDAGCWLIVDNTYEYFMYDGLKHCCVEGDHIVNVFSFSKTYGMMGWRLGYIAYSERLDGFATELVKIQDNIPICAAIISQRLAVYALEEGSGWITERVKSLVKNRDIVKEALEPLGKENVKGGEGAIYLWAKLPEGHRDDFKVVRWLAHRHGVVVIPGCASGSPGYLRVSFGGLQEVEMRAAAARLRKGIEELLHHGMVE
B3: SCO6712 S292F/V290N/Y229F (Streptomyces coelicolor, UniProt Q9XAL8); chain AKGITARTAPAGGEVRHLKMYAEKLADGQMGYGFEKGKASVPGPLIEVNEGDTLHIEFTNTMDVRASLHVHGLDYEISSDGTAMNKSDVEPGGTRTYTWRTHKPGRRDDGTWRPGSAGYWHYHDHVVGTEHGTGGIRNGLYGPVIVRRKGDVLPDATHTIVFNDMTINNRKPHTGPDFEATVGDRVEIVMITHGEFYHTFHMHGHRWADNRTGILTGPDDPSRVIDNKITGPADSFGFQIIAGEGVGAGAWMYHCHNQFHSDMGMVGLFLVKKPDGTIPGYEPHEHGGATAKSGESGEPTGGAAAHEHEH
B4: enzyme (Manihot esculenta, UniProt Q41172); chain TDDDDDNIPDDFSRKYFPDDFIFGTATSAYQIEGEATAKGRAPSVWDIFSKETPDRILDGSNGDVAVDFYNRYIQDIKNVKKMGFNAFRMSISWSRVIPSGRRREGVNEEGIQFYNDVINEIISNGLEPFVTIFHWDTPQALQDKYGGFLSRDIVYDYLQYADLLFERFGDRVKPWMTFNEPSAYVGFAHDDGVFAPGRCSSWVNRQCLAGDSATEPYIVAHNLLLSHAAAVHQYRKYYQGTQKGKIGITLFTFWYEPLSDSKVDVQAAKTALDFMFGLWMDPMTYGRYPRTMVDLAGDKLIGFTDEESQLLRGSYDFVGLQYYTAYYAEPIPPVDPKFRRYKTDSGVNATPYDLNGNLIGPQAYSSWFYIFPKGIRHFLNYTKDTYNDPVIYVTENGVDNYNNESQPIEEALQDDFRISYYKKHMWNALGSLKNYGVKLKGYFAWSYLDNFEWNIGYTSRFGLYYVDYKNNLTRYPKKSAHWFTKFLNISVNANNIYELTSKDSRKVGKFYVM
B5: enzyme (Chlamydomonas reinhardtii, UniProt A0A2K3D977); chain ASDSVLAVWRKADAVCFDVDCTITVNDSLDLLAEFMGVKEQVEILTNKAMDGSLSLEQALEERLNIINCSPDDIKRFIKAHPPASRMAPGIKELINSLQARGKAIYLISGGFRELTLPIAAYLGIPKENVFANRMNWQWDDETGMPTKLVGFDMSEPTAHNQGKPQAIARIRQRNPYNTVVMIGDGITDLEAVQTTGGADLFIGSGVVVERPAVAREADWYVYDYTDLLRTMARYSVAMVGSGAWACAAVRMIAQNTQVDDAADEFVDEVRMWVYEEDFEGKKLTEVINQTHTNPKYFPGFDLGPNVVAVPNIVDAVADADLIVFCAPHQFLHHICKQLVGKIKPGAAAISLTKGMRVRPEGPQLISQMVRRLLGIDCCVLMGANIATDIGREQLSEAVIGYDNLDAATLFQKIFQRPYFRVNLLPDPVGAEMCGTLKNIVALGAGMVDGLGLGPNSKAAIIRQGLVEMRAFSKALYPSVRDDTFMESCGVGDLVATCYGGRNRLVACEWTKAQMEGKPRTFEDLETDLLKGQKLQGVLTSNEVQEILKVRGWESQYPLFTTVNRIINGYLPPKYVVEFVAGAKYHIRRPGTDDEEIVPVRPKRPAAAGGVATAPILAA
B6: enzyme C434A (Methanosarcina mazei, UniProt Q8PVB1); chain MSEQRSVPLREHLLALKPCRHGGLIQETSETYGIPENEILDFSANFNPLGSPFDYPENGLNFEDIIKKSCGKLLEYPDNRYVEFREAAARFVGLGVTPQSIVPGNGSTEIVRLVVESVIEKGDKVLLPWPTFGEYEMQCRITGAEPVCPSQEEVNTLPDEVLEEAKILFICNPNNPTGKLRTREELKVLAERCREHKTLLYVDEAFIELSDPSQSVADLPAENNYVFVMRSLTKDFAIPGIRMGFGIAPPAMADILNTARLSWNLGAIANNTGIALLNIEGGIDSPYLKKAREMILKEGETLKAKIDRIRGFEAGEVNVNFILVDVSKFMLNSSELTARLAARGVLVRDCVSFHGLGKNYIRVAVRTEKENDRLIAAIGDVITEWGREQAKNELQHVIEKASEEGIGGRKTCEYYPCHFEGQNCTFCFCPFYPAENEKTGGKWIQSSRGGRVWSCVDCHLVHKKEIAQKILDCLMHEGDTDELVKVAWKEVMEPIL
B7: CYP4F3 A27G/C46R/I34V/M14V/R49Q/W12G (Homo sapiens, UniProt Q08477); chain MALLLAVFLLGPVAASPWLLLLLVGGSWLLARVLAWTYTFYDNCRRLQCFPQPPKRNWFLGHLGLVTPTEQGMRVLTQLVATYPQGFKVWMGPIFPVIRFCHPNIIRSVINASAAIVPKDKVFYSFLKPWLGDGLLLSAGEKWSRHRRMLTPAFHFNILKPYMKIFNESVNIMHAKWQLLASEGSARLDMFEHISLMTLDSLQKCVFSFDSHCQEKPSEYIAAILELSALVTKRHQQILLYIDFLYYLTPDGQRFRRACRLVHDFTDAVIQERRRTLPSQGVDDFLQAKAKSKTLDFIDVLLLSKDEDGKKLSDEDIRAEADTFMFEGHDTTASGLSWVLYHLAKHPEYQERCRQEVQELLKDREPKEIEWDDLAQLPFLTMCIKESLRLHPPVPAVSRCCTQDIVLPDGRVIPKGIICLISVFGTHHNPAVWPDPEVYDPFRFDPKNIKERSPLAFIPFSAGPRNCIGQAFAMAEMKVVLGLTLLRFRVLPDHTEPRRKPELVLRAEGGLWLRVEPLS
B8: enzyme (Saccharomyces cerevisiae, UniProt P46969); chain MVKPIIAPSILASDFANLGCECHKVINAGADWLHIDVMDGHFVPNITLGQPIVTSLRRSVPRPGDASNTEKKPTAFFDCHMMVENPEKWVDDFAKCGADQFTFHYEATQDPLHLVKLIKSKGIKAACAIKPGTSVDVLFELAPHLDMALVMTVEPGFGGQKFMEDMMPKVETLRAKFPHLNIQVDGGLGKETIPKAAKAGANVIVAGTSVFTAADPHDVISFMKEEVSKELRSRDLLD
B9: Por W677G (Rattus norvegicus, UniProt P00388); chain GDSHEDTSATMPEAVAEEVSLFSTTDMVLFSLIVGVLTYWFIFRKKKEEIPEFSKIQTTAPPVKESSFVEKMKKTGRNIIVFYGSQTGTAEEFANRLSKDAHRYGMRGMSADPEEYDLADLSSLPEIDKSLVVFCMATYGEGDPTDNAQDFYDWLQETDVDLTGVKFAVFGLGNKTYEHFNAMGKYVDQRLEQLGAQRIFELGLGDDDGNLEEDFITWREQFWPAVCEFFGVEATGEESSIRQYELVVHEDMDVAKVYTGEMGRLKSYENQKPPFDAKNPFLAAVTANRKLNQGTERHLMHLELDISDSKIRYESGDHVAVYPANDSALVNQIGEILGADLDVIMSLNNLDEESNKKHPFPCPTTYRTALTYYLDITNPPRTNVLYELAQYASEPSEQEHLHKMASSSGEGKELYLSWVVEARRHILAILQDYPSLRPPIDHLCELLPRLQARYYSIASSSKVHPNSVHICAVAVEYEAKSGRVNKGVATSWLRAKEPAGENGGRALVPMFVRKSQFRLPFKSTTPVIMVGPGTGIAPFMGFIQERAWLREQGKEVGETLLYYGCRRSDEDYLYREELARFHKDGALTQLNVAFSREQAHKVYVQHLLKRDREHLWKLIHEGGAHIYVCGDARNMAKDVQNTFYDIVAEFGPMEHTQAVDYVKKLMTKGRYSLDVGS
B10: ADSL R303C (Homo sapiens, UniProt P30566); chain MAAGGDHGSPDSYRSPLASRYASPEMCFVFSDRYKFRTWRQLWLWLAEAEQTLGLPITDEQIQEMKSNLENIDFKMAAEEEKRLRHDVMAHVHTFGHCCPKAAGIIHLGATSCYVGDNTDLIILRNALDLLLPKLARVISRLADFAKERASLPTLGFTHFQPAQLTTVGKRCCLWIQDLCMDLQNLKRVRDDLRFRGVKGTTGTQASFLQLFEGDDHKVEQLDKMVTEKAGFKRAFIITGQTYTRKVDIEVLSVLASLGASVHKICTDIRLLANLKEMEEPFEKQQIGSSAMPYKRNPMRSECCCSLARHLMTLVMDPLQTASVQWFERTLDDSANRRICLAEAFLTADTILNTLQNISEGLVVYPKVIERRIRQELPFMATENIIMAMVKAGGSRQDCHEKIRVLSQQAASVVKQEGGDNDLIERIQVDAYFSPIHSQLDHLLDPSSFTGRASQQVQRFLEEEVYPLLKPYESVMKVKAELCL
Sequence of UniProt C6WFL3 (whole entry, looked up): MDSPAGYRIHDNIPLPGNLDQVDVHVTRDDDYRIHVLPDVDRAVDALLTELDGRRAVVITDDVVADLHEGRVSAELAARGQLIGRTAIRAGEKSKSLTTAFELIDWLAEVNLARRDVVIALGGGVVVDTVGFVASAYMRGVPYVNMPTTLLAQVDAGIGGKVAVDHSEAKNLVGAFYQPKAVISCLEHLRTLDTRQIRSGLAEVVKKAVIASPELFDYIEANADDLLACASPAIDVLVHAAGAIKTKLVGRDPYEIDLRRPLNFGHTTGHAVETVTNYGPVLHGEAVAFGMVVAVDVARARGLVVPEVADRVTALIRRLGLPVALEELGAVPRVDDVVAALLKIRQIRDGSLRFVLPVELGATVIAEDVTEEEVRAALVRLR
Sequence of UniProt P00327 (whole entry, looked up): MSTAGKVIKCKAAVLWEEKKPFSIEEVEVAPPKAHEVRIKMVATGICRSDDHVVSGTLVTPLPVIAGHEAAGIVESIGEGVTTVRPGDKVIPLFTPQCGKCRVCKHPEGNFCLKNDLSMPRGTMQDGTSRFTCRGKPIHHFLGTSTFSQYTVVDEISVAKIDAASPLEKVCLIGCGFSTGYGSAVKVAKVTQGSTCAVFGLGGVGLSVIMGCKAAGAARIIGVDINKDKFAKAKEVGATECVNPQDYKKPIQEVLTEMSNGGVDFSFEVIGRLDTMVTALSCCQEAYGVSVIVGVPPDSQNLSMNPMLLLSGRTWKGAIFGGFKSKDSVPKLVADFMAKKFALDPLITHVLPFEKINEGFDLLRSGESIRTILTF

Molecule | substrate | setting | Km
enzyme (Coleus scutellarioides, UniProt Q84VU3) | O=C(/C=C/c1ccc(O)cc1)O[C@H](Cc1ccc(O)c(O)c1)C(=O)O | pH 7.5, 30 °C, not purified | 137 µM
B1 (ftsZ) | Nc1nc2c(ncn2[C@@H]2O[C@H](COP(=O)(O)OP(=O)(O)OP(=O)(O)O)[C@@H](O)[C@H]2O)c(=O)[nH]1 | – | 80 µM
B2 (enzyme) | O=C(O)C(=O)Cc1ccc(O)cc1 | – | 60 µM and 65.1 µM and 31.5 µM
B3 (SCO6712 S292F/V290N/Y229F) | CCn1c(=NN=c2sc3cc(S(=O)(=O)O)ccc3n2CC)sc2cc(S(=O)(=O)O)ccc21 | pH 7, 37 °C, NaCl 150 mM, with: O2 cosubstrate | 1000 µM
B4 (enzyme) | O=[N+]([O-])c1ccc(O[C@@H]2O[C@H](CO)[C@@H](O)[C@H](O)[C@H]2O)cc1 | pH 6, 30 °C, not purified | 8650 µM
enzyme (Equus caballus, UniProt P00327) | NC(=O)c1ccc[n+]([C@@H]2O[C@H](COP(=O)(O)OP(=O)(O)OC[C@H]3O[C@@H](n4cnc5c(N)ncnc54)[C@H](OP(=O)(O)O)[C@@H]3O)[C@@H](O)[C@H]2O)c1 | pH 7, 30 °C, cofactor varied | 127 µM
B5 (enzyme) | O=C(CO)COP(=O)(O)O | pH 7.5, with: NADH 500 µM | 820 µM
B6 (enzyme C434A) | Nc1ncnc2c1ncn2[C@@H]1O[C@H](COP(=O)(O)OP(=O)(O)OP(=O)(O)O)[C@@H](O)[C@H]1O | pH 8.5, 25 °C, apparent, anoxic, with: L-Thr 10 mM | 108 µM
B7 | CCCCC/C=C\C/C=C\C/C=C\C/C=C\CCCC(=O)O | pH 7.4 | 29.3 µM
enzyme (Acinetobacter baumannii, UniProt A0A5P1UDB1) | O=C(O)c1cccc(Cl)c1O | pH 7.5, 37 °C, apparent | 30.7 µM
enzyme (Actinosynnema mirum, UniProt C6WFL3) | O=C(CO)[C@@H](O)[C@H](O)[C@H](O)[C@H](O)COP(=O)(O)O | pH 7.5, 28 °C | 37 µM
enzyme (Bacteroides fragilis, UniProt Q5LAD6) | C[C@@H]1O[C@@H](Oc2ccc([N+](=O)[O-])cc2)[C@@H](O)[C@H](O)[C@@H]1O | pH 7, 37 °C | 270 µM
B8 (enzyme) | O=C(CO)[C@H](O)[C@H](O)COP(=O)(O)O | pH 8.8, 25 °C | 180 µM
B9 (Por W677G) | NC(=O)C1=CN([C@@H]2O[C@H](COP(=O)(O)OP(=O)(O)OC[C@H]3O[C@@H](n4cnc5c(N)ncnc54)[C@H](O)[C@@H]3O)[C@@H](O)[C@H]2O)C=CC1 | with: cytochrome c | 101 µM
B10 (ADSL R303C) | O=C(O)C[C@H](Nc1ncnc2c1ncn2[C@@H]1O[C@H](COP(=O)(O)O)[C@@H](O)[C@H]1O)C(=O)O | pH 7.4, 25 °C | 2.4 µM

Some of these lines once more:
Molecule | substrate | setting | Km
B7 | CCCCC/C=C\C/C=C\C/C=C\C/C=C\CCCC(=O)O | pH 7.4 | 29.3 µM
enzyme (Acinetobacter baumannii, UniProt A0A5P1UDB1) | O=C(O)c1cccc(Cl)c1O | pH 7.5, 37 °C, apparent | 30.7 µM
